# Measured values gathered from unrelated publications.
# Protocols differ between the studies behind these lines. ± gives the spread as reported.
SMILES,cell line,assay,setting,IC50
COC(=O)c1ccc(C(=O)N(C)C2CCN(c3nnc(-c4ccnn4C)c4ccccc34)CC2)cc1,NIH3T3 Light II,Gli reporter gene,"24 h, together with: SAG 100 nM",inactive
CCCNC(=O)Nc1ccc(S(=O)(=O)Oc2cccnc2C(C)C)cc1,MOLM-13,"cell growth or viability, MTT",48 h,2.3 µM
O=C(Nc1ccc(-c2n[nH]c(=S)n2N=Cc2c[nH]c3ccccc23)cc1)c1cccnc1,RAW264.7,"IL-6 release, inhibitor, ELISA",LPS-stimulated,49.7 µM
O=c1c(O)c(-c2ccc(O)c(O)c2)oc2cc(O)cc(O)c12,U-937,"cell growth or viability, ATP luminescence",24 h,8 µM
C[C@H](Cn1cnc2c(N)ncnc21)OCP(=O)(O)O,HepG2.4D14,cell growth,96 h,256 µM
COc1ccc(NCSc2nnc(-c3nn(CNc4ccc(OC)cc4)c(=O)c4ccccc34)o2)cc1,WI-38,"cell growth or viability, MTT",48 h,68.6 µM
CCNC(=O)Nc1ccc(S(=O)(=O)Oc2cccnc2C(C)C)cc1,MOLM-13,"cell growth or viability, MTT",48 h,0.9 µM
Fc1ccccc1/C=C/c1nc2ccccc2nc1Cl,HeLa 229,"cell growth or viability, MTT",72 h,> 50 µM
CCCC1(C)C(C#N)(C#N)C1(C#N)C#N,THP-1,"TNF-α release, inhibitor, ELISA","17 h, LPS-stimulated",0.66 µM
COc1cc(OC)c2cc(C(=O)NCCCN3CCOCC3)cc(O)c2c1,"C26, HepG2, MCF7","cytotoxicity, MTT",range over three cell lines,14.5 to 25.1 µM
CC(=O)[O][Pt]([NH2])([Cl])([Cl])([NH]C1CCCCC1)[O]C(C)=O,SW480,"cell viability, MTT",96 h,1.5 ± 0.1 µM
CCN1C(=O)C(n2nc(-c3c(O)c4ccccc4oc3=O)cc2-c2ccc(Br)cc2)c2ccccc21 (centres unmarked),A-375,"cell growth or viability, SRB",72 h,68.4 µM
Cc1ccc(C)c(NC(=O)CSc2nnc(-c3ccc(NC(=O)c4cccnc4)cc3)n2N)c1,RAW264.7,"reactive oxygen species, inhibitor, fluorescence",LPS-stimulated,44.3 µM
O=C1C(=Cc2ccccc2)CN(C(=O)c2cccc(C(=O)N3CC(=Cc4ccccc4)C(=O)C(=Cc4ccccc4)C3)c2)CC1=Cc1ccccc1,CEM T-lymphocytes,cell proliferation,3 d,36 ± 7.6 µM
COc1cc2ncnc(Nc3ccc(Cl)cc3F)c2cc1OC,H2030 (EGFR wild type),"cell viability, Alamar Blue",120 h,> 10 µM
O=C(CSc1nnc(-c2n[nH]c(=O)c3ccccc23)o1)c1ccccc1,WI-38,"cell growth or viability, MTT",48 h,23.5 µM
CC#CC(=O)N1CC[C@@H](n2c(=O)n(-c3ccc(Oc4ccccc4)cc3)c3c(N)ncnc32)C1,SU-DHL-6,"cell growth or viability, CCK-8",72 h,17.1 µM
Cc1ccc(NC(=O)CSc2nnc(-c3ccc(NC(=O)c4cccnc4)cc3)o2)cc1,RAW264.7,"reactive oxygen species, inhibitor, fluorescence",LPS-stimulated,12.1 µM
COc1cccc(CCc2ccc(O)cc2)c1,HL-60,"reactive oxygen species, inhibitor, fluorescence",,0.027 µg/mL
CC(=O)c1c(C)c2cnc(Nc3ccc(N4CCNCC4)cn3)nc2n(C2CCCC2)c1=O,NCI-H292,cell growth or viability,6 days,0.85 µM
CC(=O)c1ccc(NC(=O)CSc2nnc(-c3ccc(NC(=O)c4cccnc4)cc3)o2)cc1,RAW264.7,"TNF-α release, inhibitor, ELISA",LPS-stimulated,17.9 µM
O=C1C(n2nc(-c3c(O)c4ccccc4oc3=O)cc2-c2ccc(Cl)cc2)c2cc(Br)ccc2N1Cc1ccccc1 (centres unmarked),A-375,"cell growth or viability, SRB",72 h,1.02 µM
O=c1[nH]c2ccccc2nc1/C=C/c1ccco1,HeLa 229,"cell growth or viability, MTT",72 h,> 50 µM
